Results of several laboratories.
Numbered parts are unrelated; each lists some results of a single study.
Sequence of UniProt Q9NQU5 (whole entry, looked up): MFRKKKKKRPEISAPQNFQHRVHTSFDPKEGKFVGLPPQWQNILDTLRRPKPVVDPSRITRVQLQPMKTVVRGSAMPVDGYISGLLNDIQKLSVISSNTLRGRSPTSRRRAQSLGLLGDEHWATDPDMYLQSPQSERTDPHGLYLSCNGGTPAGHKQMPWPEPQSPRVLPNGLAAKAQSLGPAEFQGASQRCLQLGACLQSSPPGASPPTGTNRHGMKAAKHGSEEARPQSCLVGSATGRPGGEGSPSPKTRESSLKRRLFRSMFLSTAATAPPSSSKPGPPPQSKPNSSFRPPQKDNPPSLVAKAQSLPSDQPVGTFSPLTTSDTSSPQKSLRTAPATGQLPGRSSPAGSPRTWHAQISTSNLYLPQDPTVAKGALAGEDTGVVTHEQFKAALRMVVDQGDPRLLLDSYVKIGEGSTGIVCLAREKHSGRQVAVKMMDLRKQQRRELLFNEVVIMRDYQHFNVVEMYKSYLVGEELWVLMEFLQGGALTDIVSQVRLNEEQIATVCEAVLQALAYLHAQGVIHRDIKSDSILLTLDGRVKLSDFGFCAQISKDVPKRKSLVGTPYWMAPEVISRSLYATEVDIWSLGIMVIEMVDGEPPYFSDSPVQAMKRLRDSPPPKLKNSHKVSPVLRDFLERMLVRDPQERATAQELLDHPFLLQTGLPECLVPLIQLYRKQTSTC
Sequence of UniProt Q04759 (whole entry, looked up): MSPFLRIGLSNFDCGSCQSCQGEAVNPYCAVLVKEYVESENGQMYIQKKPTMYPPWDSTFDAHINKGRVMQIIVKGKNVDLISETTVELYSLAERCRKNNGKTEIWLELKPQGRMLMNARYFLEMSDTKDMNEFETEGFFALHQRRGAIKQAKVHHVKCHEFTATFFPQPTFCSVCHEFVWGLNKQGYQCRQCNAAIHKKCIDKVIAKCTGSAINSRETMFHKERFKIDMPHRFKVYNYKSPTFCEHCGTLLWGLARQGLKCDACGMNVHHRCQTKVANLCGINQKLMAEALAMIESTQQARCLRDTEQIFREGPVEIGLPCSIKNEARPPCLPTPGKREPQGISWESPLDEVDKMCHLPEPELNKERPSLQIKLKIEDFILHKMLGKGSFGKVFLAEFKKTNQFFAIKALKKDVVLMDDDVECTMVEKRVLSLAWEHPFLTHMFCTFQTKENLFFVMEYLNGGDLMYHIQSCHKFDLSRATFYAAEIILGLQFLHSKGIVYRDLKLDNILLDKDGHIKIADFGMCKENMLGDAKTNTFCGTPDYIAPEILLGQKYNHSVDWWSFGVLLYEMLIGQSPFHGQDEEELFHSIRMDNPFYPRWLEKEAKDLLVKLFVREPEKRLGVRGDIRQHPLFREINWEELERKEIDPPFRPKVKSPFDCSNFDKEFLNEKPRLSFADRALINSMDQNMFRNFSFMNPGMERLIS
Sequence of UniProt Q16288 (whole entry, looked up): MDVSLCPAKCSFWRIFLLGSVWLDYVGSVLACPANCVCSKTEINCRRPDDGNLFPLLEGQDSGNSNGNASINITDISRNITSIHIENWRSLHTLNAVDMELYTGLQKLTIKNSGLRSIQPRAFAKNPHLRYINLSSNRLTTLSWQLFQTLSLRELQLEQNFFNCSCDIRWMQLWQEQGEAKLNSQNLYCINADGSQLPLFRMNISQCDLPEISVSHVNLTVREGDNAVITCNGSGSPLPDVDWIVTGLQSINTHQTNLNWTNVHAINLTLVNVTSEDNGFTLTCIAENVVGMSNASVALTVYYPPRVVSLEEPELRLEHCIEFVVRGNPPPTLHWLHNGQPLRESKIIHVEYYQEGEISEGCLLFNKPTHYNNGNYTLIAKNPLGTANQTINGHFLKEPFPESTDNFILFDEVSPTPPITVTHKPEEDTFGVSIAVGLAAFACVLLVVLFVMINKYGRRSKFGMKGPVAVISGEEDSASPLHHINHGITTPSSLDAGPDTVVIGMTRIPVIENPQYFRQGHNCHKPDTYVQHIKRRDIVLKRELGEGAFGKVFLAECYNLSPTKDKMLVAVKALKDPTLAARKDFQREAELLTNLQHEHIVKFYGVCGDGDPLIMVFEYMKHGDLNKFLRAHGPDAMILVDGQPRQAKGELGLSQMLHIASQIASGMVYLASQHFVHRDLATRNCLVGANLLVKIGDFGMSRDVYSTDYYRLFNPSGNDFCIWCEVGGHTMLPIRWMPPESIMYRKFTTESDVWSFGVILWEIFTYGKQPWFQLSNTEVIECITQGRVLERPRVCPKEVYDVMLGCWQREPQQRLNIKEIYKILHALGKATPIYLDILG
Sequence of UniProt P49761 (whole entry, looked up): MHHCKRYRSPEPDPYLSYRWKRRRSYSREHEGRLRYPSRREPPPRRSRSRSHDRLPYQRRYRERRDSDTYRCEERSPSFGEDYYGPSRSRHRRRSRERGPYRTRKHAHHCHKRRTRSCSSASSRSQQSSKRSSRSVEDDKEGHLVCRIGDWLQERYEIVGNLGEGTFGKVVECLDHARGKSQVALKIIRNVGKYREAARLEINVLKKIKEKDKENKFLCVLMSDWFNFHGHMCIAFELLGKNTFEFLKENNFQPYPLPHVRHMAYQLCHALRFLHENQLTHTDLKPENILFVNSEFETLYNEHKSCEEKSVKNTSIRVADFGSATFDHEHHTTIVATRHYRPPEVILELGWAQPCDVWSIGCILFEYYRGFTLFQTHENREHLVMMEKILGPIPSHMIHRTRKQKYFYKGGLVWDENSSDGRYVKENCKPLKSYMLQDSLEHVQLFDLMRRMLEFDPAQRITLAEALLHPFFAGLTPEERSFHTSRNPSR
Sequence of UniProt O75716 (whole entry, looked up): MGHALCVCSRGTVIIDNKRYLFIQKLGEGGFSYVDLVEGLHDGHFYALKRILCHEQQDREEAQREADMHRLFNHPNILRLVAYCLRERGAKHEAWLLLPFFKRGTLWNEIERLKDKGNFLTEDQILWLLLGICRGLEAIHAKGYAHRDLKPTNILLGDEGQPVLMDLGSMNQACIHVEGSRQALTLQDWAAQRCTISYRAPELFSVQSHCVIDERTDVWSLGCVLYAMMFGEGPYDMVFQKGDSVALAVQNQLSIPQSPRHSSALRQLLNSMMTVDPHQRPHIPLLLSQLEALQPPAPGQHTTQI
Sequence of UniProt Q16620 (whole entry, looked up): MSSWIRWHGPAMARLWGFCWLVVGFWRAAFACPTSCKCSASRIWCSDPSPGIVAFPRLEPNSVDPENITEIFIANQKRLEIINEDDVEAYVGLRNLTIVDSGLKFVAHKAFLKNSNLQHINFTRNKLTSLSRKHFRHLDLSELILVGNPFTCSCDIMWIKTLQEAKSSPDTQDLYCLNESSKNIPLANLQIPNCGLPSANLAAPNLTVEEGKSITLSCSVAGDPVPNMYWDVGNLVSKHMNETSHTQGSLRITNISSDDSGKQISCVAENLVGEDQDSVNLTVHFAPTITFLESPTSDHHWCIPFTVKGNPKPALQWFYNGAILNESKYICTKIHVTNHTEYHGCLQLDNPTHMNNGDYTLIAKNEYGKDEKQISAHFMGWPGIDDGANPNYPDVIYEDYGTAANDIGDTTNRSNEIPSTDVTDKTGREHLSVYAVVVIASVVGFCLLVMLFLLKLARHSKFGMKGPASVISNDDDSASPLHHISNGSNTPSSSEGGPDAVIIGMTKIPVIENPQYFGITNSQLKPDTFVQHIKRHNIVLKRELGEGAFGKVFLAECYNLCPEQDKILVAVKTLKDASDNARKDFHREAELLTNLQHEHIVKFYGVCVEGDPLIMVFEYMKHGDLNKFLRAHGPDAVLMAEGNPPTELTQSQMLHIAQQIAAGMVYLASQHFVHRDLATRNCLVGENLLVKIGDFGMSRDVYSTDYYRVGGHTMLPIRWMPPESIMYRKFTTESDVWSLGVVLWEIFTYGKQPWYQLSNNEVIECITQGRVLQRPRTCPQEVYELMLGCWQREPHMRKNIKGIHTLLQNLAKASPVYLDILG
Sequence of UniProt Q9HBY8 (whole entry, looked up): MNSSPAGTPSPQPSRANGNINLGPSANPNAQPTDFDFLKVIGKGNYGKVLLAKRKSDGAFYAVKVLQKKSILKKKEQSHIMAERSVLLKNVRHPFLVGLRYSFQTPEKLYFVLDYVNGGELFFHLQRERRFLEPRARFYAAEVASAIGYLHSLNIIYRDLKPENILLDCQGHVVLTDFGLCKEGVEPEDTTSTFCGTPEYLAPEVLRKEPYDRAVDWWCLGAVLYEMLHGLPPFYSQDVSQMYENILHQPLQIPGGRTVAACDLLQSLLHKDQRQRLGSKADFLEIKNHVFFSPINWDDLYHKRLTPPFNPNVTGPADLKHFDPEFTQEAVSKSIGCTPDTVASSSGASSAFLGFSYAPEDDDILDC
Sequence of UniProt P52564 (whole entry, looked up): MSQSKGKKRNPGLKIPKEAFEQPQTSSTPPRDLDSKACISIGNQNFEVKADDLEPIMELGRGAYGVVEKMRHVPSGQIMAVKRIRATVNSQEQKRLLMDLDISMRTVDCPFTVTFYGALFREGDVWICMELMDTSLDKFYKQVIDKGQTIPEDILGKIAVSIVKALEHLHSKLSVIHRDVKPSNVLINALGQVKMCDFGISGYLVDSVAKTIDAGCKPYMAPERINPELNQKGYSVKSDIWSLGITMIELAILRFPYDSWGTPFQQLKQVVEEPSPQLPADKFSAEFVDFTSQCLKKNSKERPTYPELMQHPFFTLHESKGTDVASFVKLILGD
Sequence of UniProt P48730 (whole entry, looked up): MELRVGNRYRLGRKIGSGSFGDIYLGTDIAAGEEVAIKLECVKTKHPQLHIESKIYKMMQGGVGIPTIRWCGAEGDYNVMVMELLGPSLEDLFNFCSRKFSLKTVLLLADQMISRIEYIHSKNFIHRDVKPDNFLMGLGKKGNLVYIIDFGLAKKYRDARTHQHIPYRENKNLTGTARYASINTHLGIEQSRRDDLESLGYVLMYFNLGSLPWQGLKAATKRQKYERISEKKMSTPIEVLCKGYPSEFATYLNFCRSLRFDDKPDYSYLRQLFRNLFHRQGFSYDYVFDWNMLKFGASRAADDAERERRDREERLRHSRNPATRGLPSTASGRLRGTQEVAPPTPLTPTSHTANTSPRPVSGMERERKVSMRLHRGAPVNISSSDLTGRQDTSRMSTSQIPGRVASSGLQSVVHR

Block 1
Target: TATA-box-binding protein 1 (TBP1, Arabidopsis thaliana, UniProt P28147, residues 1-200, full length assumed)
Method: protein-binding microarray
Molecule type: double-stranded DNA, one strand shown
Matrix: in vitro
Concentration: not given
Notes: k-mer, scored over probes, only values ≥0.25
Direction: higher = stronger binding
Target sequence (chain): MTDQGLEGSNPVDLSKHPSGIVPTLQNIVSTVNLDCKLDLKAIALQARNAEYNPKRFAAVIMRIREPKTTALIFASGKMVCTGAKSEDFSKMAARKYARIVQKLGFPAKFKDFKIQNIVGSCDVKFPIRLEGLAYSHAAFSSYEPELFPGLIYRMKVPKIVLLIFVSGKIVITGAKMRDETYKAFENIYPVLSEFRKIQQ
`GTTATTA` gave an E-score of 0.31.
`TAAAGGA` has an E-score of 0.335.
With `GTAATTA` the E-score was 0.305.
With `CTTTATA` the E-score was 0.464.
For `ATATATC`, the E-score was 0.464.
For `GATATAC`, the E-score was 0.359.
`AAATATT` gave an E-score of 0.433.
`ATATTTC` has an E-score of 0.363.

Block 2
Target: PABPC1L2, full length, GST fusion (mouse, UniProt A0ABA7IW68)
Method: RNAcompete
Molecule type: RNA
Matrix: in vitro
Concentration: 20 nM
Notes: 7-mer, probes averaged, single round
Baseline: mean of 7-mers
Direction: higher = stronger binding
Residues (chain): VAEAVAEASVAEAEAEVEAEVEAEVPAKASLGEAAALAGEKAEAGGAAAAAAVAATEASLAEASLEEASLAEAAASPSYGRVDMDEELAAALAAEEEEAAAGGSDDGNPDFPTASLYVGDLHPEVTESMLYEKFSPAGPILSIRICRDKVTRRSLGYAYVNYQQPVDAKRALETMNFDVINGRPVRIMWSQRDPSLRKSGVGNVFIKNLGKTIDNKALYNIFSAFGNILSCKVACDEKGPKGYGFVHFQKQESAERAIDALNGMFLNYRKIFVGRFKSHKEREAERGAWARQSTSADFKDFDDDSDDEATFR
For `CUUUUAG`, the 7-mer Z-score was 0.287.
For `UACUAAU`, the 7-mer Z-score was -0.175.
`AUUCAAA` gave a 7-mer Z-score of 0.158.
For `ACUAAAC`, the 7-mer Z-score was 0.615.
`GCCAGUC` has a 7-mer Z-score of -0.296.
For `UACCAGU`, the 7-mer Z-score was -0.237.
With `AUAAUUA` the 7-mer Z-score was -0.0156.
With `ACAAACG` the 7-mer Z-score was 0.599.

Block 3
SMILES: O=C1NC(=O)c2c1c1c3ccccc3[nH]c1c1[nH]c3cc(Br)ccc3c21
Effect on: enzyme activity
Mode: inhibitor
Concentration: 0.5 µM
Baseline: control
For JAK1 (Homo sapiens, UniProt P23458): remaining activity read 110%.
For EPHA2 (Homo sapiens, UniProt P29317): remaining activity read 99.2%.
For CAMKK1 (Homo sapiens, UniProt Q8N5S9): remaining activity read 99.1%.
CSNK1D (Homo sapiens, UniProt P48730) — remaining activity: 96.9%.
MAP3K20 (Homo sapiens, UniProt Q9NYL2) — remaining activity: 88.8%.
SGK2 (Homo sapiens, UniProt Q9HBY8) — remaining activity: 68.5%.
The remaining activity was 86.4% (SRPK1 (Homo sapiens, UniProt Q96SB4)).
PRKCZ (Homo sapiens, UniProt Q05513) — remaining activity: 91.8%.
For PAK1 (Homo sapiens, UniProt Q13153): remaining activity read 87.8%.
The remaining activity was 89.7% (TYRO3 (Homo sapiens, UniProt Q06418)).
It gave 88.5% for remaining activity (MUSK (Homo sapiens, UniProt O15146)).
It gave 105% for remaining activity (TEC (Homo sapiens, UniProt P42680)).
For PRKCQ (Homo sapiens, UniProt Q04759): remaining activity read 93.1%.
The remaining activity was 97% (CLK1 (Homo sapiens, UniProt P49759)).

Block 4
Structure (SMILES): CNCc1ccccc1-c1csc([C@H](C)Nc2nc(C)nc3cc(OC)c(OC)cc23)c1
Effect on: cell-free assay
Method: competition with immobilised ligand
Concentration: 1 µM
The remaining binding was 100% (PIK3C2B (Homo sapiens, UniProt O00750)).
eIF-2-alpha kinase GCN2, C-terminal kinase domain (EIF2AK4, Homo sapiens, UniProt Q9P2K8, S808G) — remaining binding: 100%.
MAP2K6 (Homo sapiens, UniProt P52564) — remaining binding: 100%.
For NTRK3 (Homo sapiens, UniProt Q16288): remaining binding read 100%.
The remaining binding was 100% (HUNK (Homo sapiens, UniProt P57058)).
NTRK2 (Homo sapiens, UniProt Q16620) — remaining binding: 98%.
For TNK2 (Homo sapiens, UniProt Q07912): remaining binding read 100%.
NLK (Homo sapiens, UniProt Q9UBE8) — remaining binding: 100%.
TSSK3 (Homo sapiens, UniProt Q96PN8) — remaining binding: 100%.
MAP2K2 (Homo sapiens, UniProt P36507) — remaining binding: 100%.
For CLK3 (Homo sapiens, UniProt P49761): remaining binding read 100%.
It gave 100% for remaining binding (STK16 (Homo sapiens, UniProt O75716)).
For PAK6 (Homo sapiens, UniProt Q9NQU5): remaining binding read 100%.
It gave 100% for remaining binding (PIK3CD (Homo sapiens, UniProt O00329)).
For PI4KB (Homo sapiens, UniProt Q9UBF8): remaining binding read 74%.

Repeated from above (block 4):
eIF-2-alpha kinase GCN2, C-terminal kinase domain (EIF2AK4, Homo sapiens, UniProt Q9P2K8, S808G) — remaining binding: 100%.
For PAK6 (Homo sapiens, UniProt Q9NQU5): remaining binding read 100%.
The remaining binding was 100% (HUNK (Homo sapiens, UniProt P57058)).
MAP2K6 (Homo sapiens, UniProt P52564) — remaining binding: 100%.
The remaining binding was 100% (PIK3C2B (Homo sapiens, UniProt O00750)).
